Measured values pooled from the literature.
MAOB: Amine oxidase [flavin-containing] B (MAOB, Homo sapiens, UniProt P27338)
UniProt P27338, sequence (whole entry, looked up): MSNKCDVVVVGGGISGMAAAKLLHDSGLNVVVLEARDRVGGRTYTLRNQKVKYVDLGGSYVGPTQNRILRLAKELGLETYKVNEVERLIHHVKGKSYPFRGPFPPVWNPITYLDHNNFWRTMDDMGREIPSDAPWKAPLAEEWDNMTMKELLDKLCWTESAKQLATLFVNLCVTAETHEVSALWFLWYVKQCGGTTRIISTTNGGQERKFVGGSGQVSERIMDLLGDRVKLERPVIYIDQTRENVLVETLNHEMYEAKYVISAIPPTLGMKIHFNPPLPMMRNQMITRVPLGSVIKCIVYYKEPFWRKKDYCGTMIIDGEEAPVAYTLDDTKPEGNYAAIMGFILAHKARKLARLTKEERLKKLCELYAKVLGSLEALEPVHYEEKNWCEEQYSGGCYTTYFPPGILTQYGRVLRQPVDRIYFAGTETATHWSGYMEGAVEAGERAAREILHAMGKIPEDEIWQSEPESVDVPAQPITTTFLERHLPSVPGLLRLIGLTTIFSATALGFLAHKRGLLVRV
SLC6A3: Sodium-dependent dopamine transporter (SLC6A3, Homo sapiens, UniProt Q01959)
UniProt Q01959, sequence (whole entry, looked up): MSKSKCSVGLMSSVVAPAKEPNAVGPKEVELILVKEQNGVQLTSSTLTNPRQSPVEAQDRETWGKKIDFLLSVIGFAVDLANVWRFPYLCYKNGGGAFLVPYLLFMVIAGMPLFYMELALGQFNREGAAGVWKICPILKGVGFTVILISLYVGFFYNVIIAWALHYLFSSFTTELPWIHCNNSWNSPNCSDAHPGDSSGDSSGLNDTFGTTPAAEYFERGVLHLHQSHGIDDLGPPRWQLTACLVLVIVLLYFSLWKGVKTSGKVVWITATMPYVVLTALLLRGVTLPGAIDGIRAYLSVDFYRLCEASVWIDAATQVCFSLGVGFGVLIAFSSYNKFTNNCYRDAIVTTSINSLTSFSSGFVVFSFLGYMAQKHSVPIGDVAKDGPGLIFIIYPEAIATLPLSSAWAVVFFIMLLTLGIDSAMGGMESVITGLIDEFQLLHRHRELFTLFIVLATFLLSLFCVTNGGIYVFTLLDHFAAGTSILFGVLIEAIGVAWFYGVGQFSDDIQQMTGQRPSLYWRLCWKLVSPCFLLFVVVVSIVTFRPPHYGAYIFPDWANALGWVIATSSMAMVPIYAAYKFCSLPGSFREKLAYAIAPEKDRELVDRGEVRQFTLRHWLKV
PADI4: Protein-arginine deiminase type-4 (PADI4, Homo sapiens, UniProt Q9UM07)
UniProt Q9UM07, sequence (whole entry, looked up): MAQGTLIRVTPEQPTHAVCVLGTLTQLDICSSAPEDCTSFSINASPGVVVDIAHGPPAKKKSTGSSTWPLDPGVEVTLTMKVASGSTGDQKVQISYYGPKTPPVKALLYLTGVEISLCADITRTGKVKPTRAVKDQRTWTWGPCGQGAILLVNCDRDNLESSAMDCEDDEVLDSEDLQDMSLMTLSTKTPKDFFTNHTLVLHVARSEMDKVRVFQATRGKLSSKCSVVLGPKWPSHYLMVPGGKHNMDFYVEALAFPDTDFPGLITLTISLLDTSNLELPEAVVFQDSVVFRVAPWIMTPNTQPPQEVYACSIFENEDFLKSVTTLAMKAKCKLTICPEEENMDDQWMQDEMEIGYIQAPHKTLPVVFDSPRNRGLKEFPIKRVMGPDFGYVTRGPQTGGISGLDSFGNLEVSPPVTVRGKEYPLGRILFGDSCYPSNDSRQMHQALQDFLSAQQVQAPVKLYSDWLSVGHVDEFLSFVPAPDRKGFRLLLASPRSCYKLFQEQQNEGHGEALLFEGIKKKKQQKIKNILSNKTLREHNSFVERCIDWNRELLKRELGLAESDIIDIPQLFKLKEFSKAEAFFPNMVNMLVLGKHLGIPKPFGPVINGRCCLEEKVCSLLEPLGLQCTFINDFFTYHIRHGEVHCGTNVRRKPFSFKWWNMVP
UniProt P48729, sequence (whole entry, looked up): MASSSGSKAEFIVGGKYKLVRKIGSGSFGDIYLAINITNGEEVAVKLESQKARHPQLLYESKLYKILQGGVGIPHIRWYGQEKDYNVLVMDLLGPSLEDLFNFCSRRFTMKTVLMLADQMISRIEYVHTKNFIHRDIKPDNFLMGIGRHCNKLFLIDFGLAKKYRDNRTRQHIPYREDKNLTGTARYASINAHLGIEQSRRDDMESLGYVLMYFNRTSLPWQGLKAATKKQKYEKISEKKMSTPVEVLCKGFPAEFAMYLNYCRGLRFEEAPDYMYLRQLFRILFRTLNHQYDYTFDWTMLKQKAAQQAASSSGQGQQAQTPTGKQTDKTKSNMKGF
UniProt Q92793, sequence (whole entry, looked up): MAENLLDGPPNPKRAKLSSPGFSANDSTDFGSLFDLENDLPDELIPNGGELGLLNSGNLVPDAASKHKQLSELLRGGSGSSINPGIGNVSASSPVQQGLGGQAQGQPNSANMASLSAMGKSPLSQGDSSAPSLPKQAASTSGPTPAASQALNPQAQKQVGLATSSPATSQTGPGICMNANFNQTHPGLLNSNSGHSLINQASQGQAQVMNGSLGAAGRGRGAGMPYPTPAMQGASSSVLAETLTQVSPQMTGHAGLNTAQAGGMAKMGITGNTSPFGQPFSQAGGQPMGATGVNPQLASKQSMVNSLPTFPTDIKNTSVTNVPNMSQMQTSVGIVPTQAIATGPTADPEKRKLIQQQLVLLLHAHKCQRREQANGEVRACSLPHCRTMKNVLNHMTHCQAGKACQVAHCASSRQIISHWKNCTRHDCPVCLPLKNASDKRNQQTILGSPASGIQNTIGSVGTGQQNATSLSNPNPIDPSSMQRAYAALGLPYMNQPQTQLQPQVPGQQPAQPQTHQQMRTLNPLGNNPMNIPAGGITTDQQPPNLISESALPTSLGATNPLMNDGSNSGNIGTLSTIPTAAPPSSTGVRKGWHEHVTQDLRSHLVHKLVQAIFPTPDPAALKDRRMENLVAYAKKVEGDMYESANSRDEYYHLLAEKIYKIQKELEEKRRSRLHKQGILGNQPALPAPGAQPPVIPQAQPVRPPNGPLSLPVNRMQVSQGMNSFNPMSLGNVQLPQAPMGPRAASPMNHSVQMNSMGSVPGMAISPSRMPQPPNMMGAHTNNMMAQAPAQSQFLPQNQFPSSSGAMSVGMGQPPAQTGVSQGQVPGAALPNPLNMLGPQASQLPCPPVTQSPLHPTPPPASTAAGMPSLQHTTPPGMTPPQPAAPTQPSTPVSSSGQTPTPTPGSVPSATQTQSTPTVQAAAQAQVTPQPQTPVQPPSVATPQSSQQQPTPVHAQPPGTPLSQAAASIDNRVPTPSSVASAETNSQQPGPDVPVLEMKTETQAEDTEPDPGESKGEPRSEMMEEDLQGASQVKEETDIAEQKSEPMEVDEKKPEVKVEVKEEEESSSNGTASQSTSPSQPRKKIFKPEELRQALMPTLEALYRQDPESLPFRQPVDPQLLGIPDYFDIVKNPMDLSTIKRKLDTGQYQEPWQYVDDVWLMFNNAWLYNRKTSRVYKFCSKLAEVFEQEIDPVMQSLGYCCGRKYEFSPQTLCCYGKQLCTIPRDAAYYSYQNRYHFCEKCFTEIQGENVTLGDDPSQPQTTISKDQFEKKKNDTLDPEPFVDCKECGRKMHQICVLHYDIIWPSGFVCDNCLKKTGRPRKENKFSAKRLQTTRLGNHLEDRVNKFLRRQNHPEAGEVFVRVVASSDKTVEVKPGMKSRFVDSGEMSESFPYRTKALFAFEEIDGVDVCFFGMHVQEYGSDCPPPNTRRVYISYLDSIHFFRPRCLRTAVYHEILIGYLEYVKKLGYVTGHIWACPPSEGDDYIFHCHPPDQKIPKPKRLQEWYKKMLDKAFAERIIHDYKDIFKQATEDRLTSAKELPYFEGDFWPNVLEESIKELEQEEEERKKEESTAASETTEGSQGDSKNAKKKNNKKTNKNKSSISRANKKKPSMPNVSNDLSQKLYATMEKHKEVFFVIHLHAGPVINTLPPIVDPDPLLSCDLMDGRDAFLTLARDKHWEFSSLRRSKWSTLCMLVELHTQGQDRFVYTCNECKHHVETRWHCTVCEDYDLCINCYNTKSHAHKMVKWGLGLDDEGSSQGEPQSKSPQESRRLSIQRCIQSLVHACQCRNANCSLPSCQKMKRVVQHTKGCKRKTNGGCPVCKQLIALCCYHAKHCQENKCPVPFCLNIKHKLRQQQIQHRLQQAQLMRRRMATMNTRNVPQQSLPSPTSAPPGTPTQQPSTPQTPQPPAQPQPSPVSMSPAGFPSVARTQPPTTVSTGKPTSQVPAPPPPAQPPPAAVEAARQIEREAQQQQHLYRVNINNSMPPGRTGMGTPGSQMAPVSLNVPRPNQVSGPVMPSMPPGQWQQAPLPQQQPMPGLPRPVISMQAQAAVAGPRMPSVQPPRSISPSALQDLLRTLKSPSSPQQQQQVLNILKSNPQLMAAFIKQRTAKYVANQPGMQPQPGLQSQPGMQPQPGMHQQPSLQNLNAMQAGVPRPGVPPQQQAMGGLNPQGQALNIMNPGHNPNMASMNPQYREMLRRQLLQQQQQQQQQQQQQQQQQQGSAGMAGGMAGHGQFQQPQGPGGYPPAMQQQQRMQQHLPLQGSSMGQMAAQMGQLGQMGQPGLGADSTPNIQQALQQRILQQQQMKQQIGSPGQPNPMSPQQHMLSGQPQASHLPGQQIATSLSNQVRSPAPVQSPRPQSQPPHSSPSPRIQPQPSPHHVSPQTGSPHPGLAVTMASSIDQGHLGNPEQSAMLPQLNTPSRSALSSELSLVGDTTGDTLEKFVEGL

O=C(Nc1ccc(Cl)c(Cl)c1)c1ccc2c(c1)C(=O)NC2=O — selectivity ratio (MAOB; baseline: IC50 MAO-A over IC50 MAO-B): > 2860
Cn1nnc2ccc(NC(=O)c3cccc(C(=O)O)c3)cc21 — selectivity ratio (CREB-binding protein, bromodomain (CREBBP, Homo sapiens, UniProt Q92793); binding, BROMOscan competition binding; baseline: Kd BRD4 bromodomain 1 over Kd CBP bromodomain): 0.4
CNc1nc(C#Cc2ccc(Cl)s2)nc2c1ncn2[C@H]1[C@H](O)[C@H](O)[C@]2(CC#N)C[C@H]12 — selectivity ratio (SLC6A3; baseline: NET EC50 over DAT EC50): 23 fold
N=C(CCl)NCCC[C@H](NC(=O)c1ccc2cc(-c3ccc4nncn4c3)ccc2c1)C(=O)NCc1ccccc1 — selectivity ratio (PADI4; baseline: PAD4 IC50 over PAD1 IC50): 0.949
c1ccc(-c2n[nH]cc2-c2ccncc2)nc1 — selectivity ratio (Casein kinase I isoform alpha (CSNK1A1, Homo sapiens, UniProt P48729); enzyme activity, ADP-Glo; baseline: IC50 over Yck2 IC50): 6
O=C(Nc1ccc(Cl)c(F)c1)c1ccc2c(c1)C(=O)NC2=O — selectivity ratio (MAOB; baseline: IC50 MAO-A over IC50 MAO-B): > 1380
Cc1ccc(COc2ccc3ccc(C(=O)N[C@@H](CCCNC(=N)CCl)C(=O)NCc4ccccc4)cc3c2)cc1 — selectivity ratio (PADI4; baseline: PAD4 IC50 over PAD1 IC50): 0.698
O=C(Nc1ccc(F)c(Br)c1)c1ccc2c(c1)C(=O)NC2=O — selectivity ratio (MAOB; baseline: IC50 MAO-A over IC50 MAO-B): > 3640
CC[C@H](C)[C@H](NC(=O)[C@H](CCCCN)NC(=O)[C@@H](NC(=O)[C@H](CCCNC(=N)N)NC(=O)[C@@H](NC(=O)c1ccc2c(c1)C(=O)OC21c2ccc(O)cc2Oc2cc(O)ccc21)[C@@H](C)O)[C@@H](C)O)C(=O)N[C@@H](CC(=O)O)C(=O)N[C@@H](Cc1c[nH]c2ccccc12)C(=O)NC(C)(C)C(=O)N[C@@H](CCCCN)C(=O)N[C@H](C(=O)N[C@@H](CC(C)C)C(=O)NC(C)(C)C(=O)N[C@@H](CCCCN)C(=O)NCCCCCC(=O)NCCCC[C@H](NC(=O)CCCCCNC(=O)[C@H](CCCCN)NC(=O)C(C)(C)NC(=O)[C@H](CC(C)C)NC(=O)[C@@H](NC(=O)[C@H](CCCCN)NC(=O)C(C)(C)NC(=O)[C@H](Cc1c[nH]c2ccccc12)NC(=O)[C@H](CC(=O)O)NC(=O)[C@@H](NC(=O)[C@H](CCCCN)NC(=O)[C@@H](NC(=O)[C@H](CCCNC(=N)N)NC(=O)[C@@H](NC(=O)c1ccc2c(c1)C(=O)OC21c2ccc(O)cc2Oc2cc(O)ccc21)[C@@H](C)O)[C@@H](C)O)[C@@H](C)CC)[C@@H](C)CC)C(N)=O)[C@@H](C)CC — selectivity ratio (S100P and S100B (human); binding, fluorescence anisotropy; baseline: Kd S100P over Kd S100B): ~7 fold
N=C(CCl)NCCC[C@H](NC(=O)c1ccc2cc(-c3cc(F)c(F)c(F)c3)ccc2c1)C(=O)NCc1ccccc1 — selectivity ratio (PADI4; baseline: PAD4 IC50 over PAD1 IC50): 0.687
O=C(Nc1ccc(F)c(Cl)c1)c1ccc2c(c1)C(=O)NC2=O — selectivity ratio (MAOB; baseline: IC50 MAO-A over IC50 MAO-B): > 2670
O=C(Nc1ccc(F)cn1)c1cc(Oc2cncnc2)cn2ncnc12 — selectivity ratio (SLC6A3; dopamine uptake, inhibitor; CHO-K1; added: [3H]dopamine; baseline: DAT IC50 over mGlu5 IC50): > 135

Some of these lines once more:
CNc1nc(C#Cc2ccc(Cl)s2)nc2c1ncn2[C@H]1[C@H](O)[C@H](O)[C@]2(CC#N)C[C@H]12 — selectivity ratio (SLC6A3; baseline: NET EC50 over DAT EC50): 23 fold
